Results pooled from the literature.
Numbered parts are unrelated; each lists some results of a single study. Values joined by “and” are separate records of one study, mostly repeats; a detail may differ.
Chain of UniProt Q9Y2U5 (whole entry, looked up): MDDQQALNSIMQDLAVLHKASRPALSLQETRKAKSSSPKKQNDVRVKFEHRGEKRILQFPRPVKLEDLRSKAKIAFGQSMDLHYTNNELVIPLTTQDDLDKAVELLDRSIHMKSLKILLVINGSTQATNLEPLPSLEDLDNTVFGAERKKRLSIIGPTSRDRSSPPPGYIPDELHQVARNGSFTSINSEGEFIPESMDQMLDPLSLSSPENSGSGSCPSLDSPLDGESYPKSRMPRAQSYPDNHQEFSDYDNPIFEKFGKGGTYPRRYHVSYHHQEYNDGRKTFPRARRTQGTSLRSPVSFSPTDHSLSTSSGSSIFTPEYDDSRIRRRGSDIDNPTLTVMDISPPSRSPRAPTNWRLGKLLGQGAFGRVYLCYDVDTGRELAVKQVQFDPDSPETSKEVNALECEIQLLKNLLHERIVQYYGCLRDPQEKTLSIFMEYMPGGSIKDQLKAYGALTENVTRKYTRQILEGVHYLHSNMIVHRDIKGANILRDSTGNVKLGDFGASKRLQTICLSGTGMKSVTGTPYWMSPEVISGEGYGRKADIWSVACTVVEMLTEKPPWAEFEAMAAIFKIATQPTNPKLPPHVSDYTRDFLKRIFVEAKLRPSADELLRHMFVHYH
Chain of UniProt P57058 (whole entry, looked up): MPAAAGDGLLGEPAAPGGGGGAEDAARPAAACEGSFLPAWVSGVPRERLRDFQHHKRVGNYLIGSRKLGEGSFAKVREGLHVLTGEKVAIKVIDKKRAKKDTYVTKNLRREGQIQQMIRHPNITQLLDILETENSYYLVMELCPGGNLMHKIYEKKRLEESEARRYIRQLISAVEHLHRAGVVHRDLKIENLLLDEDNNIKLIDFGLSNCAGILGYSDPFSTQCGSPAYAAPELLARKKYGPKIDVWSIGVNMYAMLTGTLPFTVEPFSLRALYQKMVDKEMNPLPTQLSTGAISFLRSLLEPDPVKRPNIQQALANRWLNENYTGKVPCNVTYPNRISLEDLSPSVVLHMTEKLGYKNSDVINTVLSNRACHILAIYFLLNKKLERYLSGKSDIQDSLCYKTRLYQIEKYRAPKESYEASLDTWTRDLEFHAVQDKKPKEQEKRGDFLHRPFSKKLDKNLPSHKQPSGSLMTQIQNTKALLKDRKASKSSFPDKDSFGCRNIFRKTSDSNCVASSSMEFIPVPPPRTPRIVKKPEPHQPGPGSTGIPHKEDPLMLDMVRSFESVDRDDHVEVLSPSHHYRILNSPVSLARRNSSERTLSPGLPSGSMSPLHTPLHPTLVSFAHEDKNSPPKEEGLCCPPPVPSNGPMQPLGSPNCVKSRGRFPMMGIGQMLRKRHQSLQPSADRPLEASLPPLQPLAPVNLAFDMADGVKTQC
Chain of UniProt P42679 (whole entry, looked up): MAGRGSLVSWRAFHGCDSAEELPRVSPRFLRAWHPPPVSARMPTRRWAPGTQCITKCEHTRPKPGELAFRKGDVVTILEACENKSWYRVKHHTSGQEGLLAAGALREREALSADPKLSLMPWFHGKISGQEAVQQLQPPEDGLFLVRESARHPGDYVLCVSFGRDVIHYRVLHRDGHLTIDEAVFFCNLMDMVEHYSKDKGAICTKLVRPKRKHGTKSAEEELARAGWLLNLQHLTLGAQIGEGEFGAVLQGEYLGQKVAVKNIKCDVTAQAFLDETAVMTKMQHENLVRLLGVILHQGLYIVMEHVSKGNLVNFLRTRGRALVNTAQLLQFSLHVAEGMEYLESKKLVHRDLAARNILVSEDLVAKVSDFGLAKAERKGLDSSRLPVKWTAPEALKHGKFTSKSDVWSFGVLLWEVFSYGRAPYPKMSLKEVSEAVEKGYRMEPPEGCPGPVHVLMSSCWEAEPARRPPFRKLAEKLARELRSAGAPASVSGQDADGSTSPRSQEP
Chain of UniProt Q8TDX7 (whole entry, looked up): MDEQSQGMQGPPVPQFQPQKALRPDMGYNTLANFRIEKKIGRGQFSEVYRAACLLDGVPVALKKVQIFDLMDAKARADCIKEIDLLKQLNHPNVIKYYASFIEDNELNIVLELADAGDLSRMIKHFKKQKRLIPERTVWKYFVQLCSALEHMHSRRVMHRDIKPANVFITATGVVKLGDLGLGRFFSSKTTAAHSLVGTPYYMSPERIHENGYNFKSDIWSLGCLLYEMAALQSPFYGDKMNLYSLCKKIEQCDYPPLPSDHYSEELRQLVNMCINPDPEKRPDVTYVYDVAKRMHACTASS
Chain of UniProt Q9UKI8 (whole entry, looked up): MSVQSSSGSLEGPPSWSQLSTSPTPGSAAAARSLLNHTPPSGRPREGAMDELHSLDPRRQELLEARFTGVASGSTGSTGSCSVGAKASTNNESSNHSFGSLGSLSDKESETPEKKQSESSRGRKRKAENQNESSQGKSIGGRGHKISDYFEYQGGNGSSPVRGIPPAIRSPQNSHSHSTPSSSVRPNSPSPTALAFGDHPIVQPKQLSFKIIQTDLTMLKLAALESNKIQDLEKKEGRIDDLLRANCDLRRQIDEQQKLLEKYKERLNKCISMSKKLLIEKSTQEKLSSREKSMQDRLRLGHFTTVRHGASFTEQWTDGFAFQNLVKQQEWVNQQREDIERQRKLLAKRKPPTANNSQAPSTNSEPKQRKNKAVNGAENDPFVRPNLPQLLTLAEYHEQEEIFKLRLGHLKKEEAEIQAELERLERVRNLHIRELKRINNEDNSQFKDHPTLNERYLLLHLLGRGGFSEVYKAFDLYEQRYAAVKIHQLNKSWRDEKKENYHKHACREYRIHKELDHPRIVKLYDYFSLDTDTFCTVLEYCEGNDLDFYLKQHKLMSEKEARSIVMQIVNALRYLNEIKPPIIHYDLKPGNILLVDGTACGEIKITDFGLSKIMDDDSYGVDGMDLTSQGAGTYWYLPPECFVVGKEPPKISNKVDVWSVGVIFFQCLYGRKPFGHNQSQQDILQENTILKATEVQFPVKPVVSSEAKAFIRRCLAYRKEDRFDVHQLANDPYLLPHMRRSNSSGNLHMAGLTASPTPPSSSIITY
Chain of UniProt O15530 (whole entry, looked up): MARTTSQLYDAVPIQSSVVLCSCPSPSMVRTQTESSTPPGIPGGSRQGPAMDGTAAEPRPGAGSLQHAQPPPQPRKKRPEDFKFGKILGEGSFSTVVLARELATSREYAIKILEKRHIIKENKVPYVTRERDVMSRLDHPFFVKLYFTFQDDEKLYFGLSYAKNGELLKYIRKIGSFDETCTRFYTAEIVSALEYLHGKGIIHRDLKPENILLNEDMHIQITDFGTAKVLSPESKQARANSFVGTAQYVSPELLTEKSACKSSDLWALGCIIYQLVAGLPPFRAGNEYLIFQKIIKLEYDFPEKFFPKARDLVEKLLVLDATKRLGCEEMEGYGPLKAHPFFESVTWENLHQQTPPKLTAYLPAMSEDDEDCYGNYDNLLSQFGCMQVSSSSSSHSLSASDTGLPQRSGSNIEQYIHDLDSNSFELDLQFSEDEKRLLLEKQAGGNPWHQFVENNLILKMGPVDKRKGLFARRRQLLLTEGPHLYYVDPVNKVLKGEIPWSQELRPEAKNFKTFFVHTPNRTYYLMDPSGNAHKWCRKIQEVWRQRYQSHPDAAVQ
Chain of UniProt Q00526 (whole entry, looked up): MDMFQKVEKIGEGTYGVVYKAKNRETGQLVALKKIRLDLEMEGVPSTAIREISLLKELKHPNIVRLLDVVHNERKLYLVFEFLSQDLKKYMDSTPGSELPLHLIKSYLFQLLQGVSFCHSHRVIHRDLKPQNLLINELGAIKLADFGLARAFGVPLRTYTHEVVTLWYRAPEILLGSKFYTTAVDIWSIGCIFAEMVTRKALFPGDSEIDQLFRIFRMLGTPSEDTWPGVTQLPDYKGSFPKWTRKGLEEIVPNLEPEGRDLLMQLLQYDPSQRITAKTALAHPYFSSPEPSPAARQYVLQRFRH

Set 1 — effect on: enzyme activity; tested at: 5 µM; relative to: untreated control
Compound: O=C(Nc1cnn(-c2csc(C(=O)NC3COC3)c2)c1)Nc1ccccc1Cl
target	remaining activity [%]
IKBKB (Homo sapiens, UniProt O14920)	95.2
VRK2 (Homo sapiens, UniProt Q86Y07)	103
PRKCZ (Homo sapiens, UniProt Q05513)	102
NUAK1 (Homo sapiens, UniProt O60285)	97.7
NEK7 (Homo sapiens, UniProt Q8TDX7)	101
GSK3B (Homo sapiens, UniProt P49841)	94.5
BRSK2 (Homo sapiens, UniProt Q8IWQ3)	101
MAP3K10 (Homo sapiens, UniProt Q02779)	98.1
CSNK1D (Homo sapiens, UniProt P48730)	100
TLK1 (Homo sapiens, UniProt Q9UKI8)	102
MAPK12 (Homo sapiens, UniProt P53778)	94.5
FLT4 (Homo sapiens, UniProt P35916)	93.8
MATK (Homo sapiens, UniProt P42679)	97.2

Set 2 — effect on: enzyme activity; action: inhibitor; tested at: 0.5 µM; relative to: control
Target: Serine/threonine-protein kinase TAO2 (TAOK2, Homo sapiens, UniProt Q9UL54)
Chain of UniProt Q9UL54 (whole entry, looked up): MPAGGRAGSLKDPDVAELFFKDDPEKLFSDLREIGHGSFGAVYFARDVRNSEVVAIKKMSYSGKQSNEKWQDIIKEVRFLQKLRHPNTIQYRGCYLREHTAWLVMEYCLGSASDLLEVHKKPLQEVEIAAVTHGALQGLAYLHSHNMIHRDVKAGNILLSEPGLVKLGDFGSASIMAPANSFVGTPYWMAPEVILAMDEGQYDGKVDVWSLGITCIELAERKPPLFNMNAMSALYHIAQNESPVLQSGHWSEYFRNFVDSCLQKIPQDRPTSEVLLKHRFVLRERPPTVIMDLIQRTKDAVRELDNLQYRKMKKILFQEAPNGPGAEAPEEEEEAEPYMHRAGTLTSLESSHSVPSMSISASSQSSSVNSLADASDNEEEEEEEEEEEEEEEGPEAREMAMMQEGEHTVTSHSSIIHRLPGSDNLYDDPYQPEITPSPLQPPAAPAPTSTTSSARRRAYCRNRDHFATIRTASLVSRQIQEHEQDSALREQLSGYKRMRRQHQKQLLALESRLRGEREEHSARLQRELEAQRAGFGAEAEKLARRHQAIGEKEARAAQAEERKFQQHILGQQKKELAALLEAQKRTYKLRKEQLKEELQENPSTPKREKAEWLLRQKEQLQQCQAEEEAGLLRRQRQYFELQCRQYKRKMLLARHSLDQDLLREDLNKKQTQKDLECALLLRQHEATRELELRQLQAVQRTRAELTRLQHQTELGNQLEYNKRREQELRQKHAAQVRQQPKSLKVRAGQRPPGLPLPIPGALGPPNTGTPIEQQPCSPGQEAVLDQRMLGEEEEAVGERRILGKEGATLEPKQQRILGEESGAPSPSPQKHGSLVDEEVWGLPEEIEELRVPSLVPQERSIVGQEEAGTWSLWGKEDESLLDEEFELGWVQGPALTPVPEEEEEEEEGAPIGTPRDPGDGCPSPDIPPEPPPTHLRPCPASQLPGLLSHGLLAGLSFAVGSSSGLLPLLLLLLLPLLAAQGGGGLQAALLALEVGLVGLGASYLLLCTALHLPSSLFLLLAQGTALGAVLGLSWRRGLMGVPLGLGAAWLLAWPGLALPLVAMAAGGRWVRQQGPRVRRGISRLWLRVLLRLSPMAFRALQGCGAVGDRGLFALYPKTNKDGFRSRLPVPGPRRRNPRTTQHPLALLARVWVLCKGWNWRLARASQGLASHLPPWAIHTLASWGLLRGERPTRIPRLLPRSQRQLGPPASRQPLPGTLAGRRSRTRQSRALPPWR
Compound	remaining activity
Cc1ccc(Nc2nccc(N(C)c3ccc4c(C)n(C)nc4c3)n2)cc1S(N)(=O)=O	26.8%
O=C1NC(=O)c2cc(Nc3ccc(F)cc3)c(Nc3ccc(F)cc3)cc21	94.7%
COc1cc2ncnc(Nc3ccc(Oc4ccccc4)cc3)c2cc1OC	97.8%
COc1cc2ncnc(Nc3ccc(F)c(Cl)c3)c2cc1OCCCN1CCOCC1	106%
N#CC(C#N)=C(N)/C(C#N)=C/c1ccc(O)cc1	97.3%
COc1ccc(CNC(=O)Nc2ncc([N+](=O)[O-])s2)cc1	98.5%
N#CCCc1ccc2c(c1)-c1[nH]c3ccc([N+](=O)[O-])cc3c1CC(=O)N2	86.4%
CC(C)[C@H](CO)Nc1nc(Nc2cc(N)cc(Cl)c2)c2ncn(C(C)C)c2n1	82.2%
NCCNc1ncc(C(N)=O)c(Nc2cccc(C(F)(F)F)c2)n1	85.9%
Cc1cccc(-c2[nH]c(C(C)(C)C)nc2-c2ccc3c(c2)OCO3)n1	87.6%
CO[C@H]1C[C@@H]2CC[C@@H](C)[C@@](O)(O2)C(=O)C(=O)N2CCCC[C@H]2C(=O)O[C@H]([C@H](C)C[C@@H]2CC[C@@H](O)[C@H](OC)C2)CC(=O)[C@H](C)/C=C(\C)[C@@H](O)[C@@H](OC)C(=O)[C@H](C)C[C@H](C)/C=C/C=C/C=C/1C	97.6%
CNC(=O)c1cc(Oc2ccc(NC(=O)Nc3ccc(Cl)c(C(F)(F)F)c3)cc2)ccn1	36.9%
COc1cc2nccc(Oc3ccc(NC(=S)NC(=O)c4ccccc4C)cc3)c2cc1OC	91.9%
O=C(O)c1ccc2c3c1cccc3c(=O)n1c3ccccc3nc21	95.2%
COc1ccc(OC)c2c(=S)c3ccccc3[nH]c12	100%
COc1ccc(C(=O)Nc2sc3c(c2C(N)=O)CCCC3)cc1OC	97%
Nc1ncnc2n[nH]c(Nc3ccc(F)cc3)c12	97.3%

Set 3 — method: competition with immobilised ligand; tested at: 1 µM
SMILES: CC(=O)Nc1c(C(C)=O)c(=O)n(C)c2nc(-c3ccc(Cl)cc3Cl)c(-c3ccc(Cl)cc3)cc12
target	test	remaining binding [%]
CDK3 (Homo sapiens, UniProt Q00526)	cell-free assay	100
WNK2 (Homo sapiens, UniProt Q9Y3S1)	cell-free assay	95
MAP3K2 (Homo sapiens, UniProt Q9Y2U5)	cell-free assay	100
PRKCE (Homo sapiens, UniProt Q02156)	binding	48
HUNK (Homo sapiens, UniProt P57058)	cell-free assay	100
GRK4 (Homo sapiens, UniProt P32298)	cell-free assay	100
ROS1 (Homo sapiens, UniProt P08922)	cell-free assay	99
PDPK1 (Homo sapiens, UniProt O15530)	cell-free assay	100

Set 4 — species: C57BL/6 CES1-/- mice, EL4 tumour; sample: EL4 tumour; route: subcutaneous; dose: 0.3 mg/kg/day DON equivalent; time: 5 days
Compound: CC(=O)N[C@@H](Cc1c[nH]c2ccccc12)C(=O)N[C@@H](CCC(=O)C=[N+]=[N-])C(=O)OC(C)C
test	setting	how to read	metabolite peak intensity
UPLC-MS/MS, item: 4-methyl-2-oxopentanoate	–	–	172000 a.u. and 270000 a.u. and 135000 a.u. and 177000 a.u. and 147000 a.u.
UPLC-MS/MS metabolomics, item: N-acetylputrescine	normalised to tissue mass	higher = more metabolite	2.52e+06 a.u. and 2.39e+06 a.u. and 2.6e+06 a.u. and 1.9e+06 a.u. and 1.56e+06 a.u. and 2.56e+06 a.u.
LC-MS/MS metabolomics, item: phenol sulfate	–	higher = more metabolite	969000 a.u. and 2.42e+06 a.u. and 3.51e+06 a.u. and 2.1e+06 a.u. and 1.2e+06 a.u. and 1.74e+06 a.u.
UPLC-MS/MS metabolomics, item: N-acetylarginine	normalised to tissue mass	higher = more metabolite	1.33e+06 a.u. and 1.57e+06 a.u. and 1.69e+06 a.u. and 1.41e+06 a.u. and 1.32e+06 a.u. and 1.38e+06 a.u.
LC-MS/MS metabolomics, item: pantothenate	–	higher = more metabolite	9.88e+06 a.u. and 6.51e+06 a.u. and 1.52e+07 a.u. and 7.88e+06 a.u. and 1.01e+07 a.u. and 1.27e+07 a.u.
UPLC-MS/MS, item: CoA-glutathione	–	–	110000 a.u. and 133000 a.u. and 44300 a.u. and 123000 a.u. and 89800 a.u. and 24400 a.u.
LC-MS/MS metabolomics, item: 3'-AMP	normalised to tissue mass	higher = more metabolite	1.82e+06 a.u. and 1.42e+06 a.u. and 1.61e+06 a.u. and 2.88e+06 a.u. and 2.43e+06 a.u. and 2.66e+06 a.u.
UPLC-MS/MS, item: 4-hydroxyphenylpyruvate	–	–	121000 a.u. and 189000 a.u. and 165000 a.u. and 123000 a.u. and 143000 a.u. and 175000 a.u.
UPLC-MS/MS, item: AMP	–	–	3.37e+07 a.u. and 4.51e+07 a.u. and 4.49e+07 a.u. and 2.6e+07 a.u. and 3.11e+07 a.u. and 3.16e+07 a.u.

For quick reference, copied from above (set 2):
Compound	remaining activity
Cc1cccc(-c2[nH]c(C(C)(C)C)nc2-c2ccc3c(c2)OCO3)n1	87.6%
CO[C@H]1C[C@@H]2CC[C@@H](C)[C@@](O)(O2)C(=O)C(=O)N2CCCC[C@H]2C(=O)O[C@H]([C@H](C)C[C@@H]2CC[C@@H](O)[C@H](OC)C2)CC(=O)[C@H](C)/C=C(\C)[C@@H](O)[C@@H](OC)C(=O)[C@H](C)C[C@H](C)/C=C/C=C/C=C/1C	97.6%
CNC(=O)c1cc(Oc2ccc(NC(=O)Nc3ccc(Cl)c(C(F)(F)F)c3)cc2)ccn1	36.9%
COc1cc2nccc(Oc3ccc(NC(=S)NC(=O)c4ccccc4C)cc3)c2cc1OC	91.9%
O=C(O)c1ccc2c3c1cccc3c(=O)n1c3ccccc3nc21	95.2%
COc1ccc(OC)c2c(=S)c3ccccc3[nH]c12	100%
